Published values pooled from the literature.
Each numbered part is a random draw from the data of one study; scales do not carry over between parts. “And” joins repeats or separate records; there may be more than shown. Numbers after ± are the reported error.
UniProt P11229, sequence (whole entry, looked up): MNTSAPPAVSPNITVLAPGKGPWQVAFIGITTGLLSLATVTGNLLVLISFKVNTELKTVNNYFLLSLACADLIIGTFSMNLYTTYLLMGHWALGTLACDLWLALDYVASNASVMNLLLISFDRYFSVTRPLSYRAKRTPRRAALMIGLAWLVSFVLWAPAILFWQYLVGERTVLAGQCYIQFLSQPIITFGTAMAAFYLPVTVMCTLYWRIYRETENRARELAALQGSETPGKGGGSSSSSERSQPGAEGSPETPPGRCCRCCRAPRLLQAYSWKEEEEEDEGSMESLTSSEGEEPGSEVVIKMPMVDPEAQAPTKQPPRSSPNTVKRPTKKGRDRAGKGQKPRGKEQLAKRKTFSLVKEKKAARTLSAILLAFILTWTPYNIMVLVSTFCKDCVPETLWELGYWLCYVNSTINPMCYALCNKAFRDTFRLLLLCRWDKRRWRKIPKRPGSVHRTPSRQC
UniProt P41279, sequence (whole entry, looked up): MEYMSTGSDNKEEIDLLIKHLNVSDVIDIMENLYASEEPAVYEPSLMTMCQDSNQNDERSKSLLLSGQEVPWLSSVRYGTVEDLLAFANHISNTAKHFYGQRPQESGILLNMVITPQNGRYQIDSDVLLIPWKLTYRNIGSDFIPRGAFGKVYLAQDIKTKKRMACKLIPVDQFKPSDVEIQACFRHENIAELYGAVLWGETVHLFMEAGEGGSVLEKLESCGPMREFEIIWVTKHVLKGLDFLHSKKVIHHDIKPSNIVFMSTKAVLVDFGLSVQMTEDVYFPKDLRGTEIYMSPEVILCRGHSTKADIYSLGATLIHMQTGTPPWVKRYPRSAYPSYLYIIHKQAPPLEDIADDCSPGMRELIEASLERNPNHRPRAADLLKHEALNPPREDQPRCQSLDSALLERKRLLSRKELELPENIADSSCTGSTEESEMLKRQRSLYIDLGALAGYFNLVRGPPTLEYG
UniProt Q05940, sequence (whole entry, looked up): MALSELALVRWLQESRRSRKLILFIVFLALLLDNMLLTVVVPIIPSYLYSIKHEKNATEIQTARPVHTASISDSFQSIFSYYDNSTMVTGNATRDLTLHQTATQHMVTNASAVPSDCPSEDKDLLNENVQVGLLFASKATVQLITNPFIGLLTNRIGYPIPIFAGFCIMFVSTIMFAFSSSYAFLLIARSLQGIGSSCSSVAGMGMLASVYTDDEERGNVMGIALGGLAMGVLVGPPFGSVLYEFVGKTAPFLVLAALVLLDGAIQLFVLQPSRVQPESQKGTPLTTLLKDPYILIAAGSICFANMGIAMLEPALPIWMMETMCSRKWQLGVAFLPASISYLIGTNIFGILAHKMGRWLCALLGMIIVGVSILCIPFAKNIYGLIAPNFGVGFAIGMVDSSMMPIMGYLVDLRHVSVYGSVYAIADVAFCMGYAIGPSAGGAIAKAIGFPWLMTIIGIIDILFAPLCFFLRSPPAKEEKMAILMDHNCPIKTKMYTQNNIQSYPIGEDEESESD

Sample 1
Target: Bromodomain-containing protein 4, BD1 (BRD4, Homo sapiens, UniProt O60885)
Mode: binding
Method: isothermal titration calorimetry
Temperature: 15 °C
| Structure (SMILES) | ΔH [kcal/mol] |
| --- | --- |
| CC(C)CCN1c2nc(Nc3cc(F)c(O)c(F)c3)ncc2N(C)C(=O)C1C (stereo not shown) | -10.9 ± 0.02 |
| Cc1cnc(Nc2ccc(OCCN3CCCC3)cc2)nc1Nc1cccc(S(=O)(=O)NC(C)(C)C)c1 | -5.28 ± 0.03 |
| Cc1cnc(Nc2ccc(N3CCN(C)CC3)cc2)nc1Nc1cccc(S(=O)(=O)NC(C)(C)C)c1 | -7.15 ± 0.01 |
| CC[C@@H]1C(=O)N(C)c2cnc(Nc3ccc(C(=O)N[C@H]4CC[C@H](N5CCN(CC6CC6)CC5)CC4)cc3OC)nc2N1C(C)C | -8.5 ± 0.04 |

Sample 2
Organism: Sarcocystis neurona
Effect on: parasite growth
Tested at: 10 µM
Time: 96 h
Notes: first screen
| Structure (SMILES) | inhibition [%] |
| --- | --- |
| CC1(C)O[C@@H]2C[C@H]3[C@@H]4C[C@H](F)C5=CC(=O)C=C[C@]5(C)[C@@]4(F)[C@@H](O)C[C@]3(C)[C@]2(C(=O)CO)O1 | 22.9 |
| COC(=O)CCc1ccc(OCC(O)CNC(C)C)cc1 (stereo not shown) | 4.2 |
| Cc1cccc(C)c1NC(=O)C(C)N (stereo not shown) | 4.3 |
| COc1cc2nc(N(C)CCCNC(=O)C3CCCO3)nc(N)c2cc1OC (stereo not shown) | 8.2 |
| CN1[C@@H]2C[C@@H](OC(=O)[C@H](CO)c3ccccc3)C[C@H]1[C@@H]1O[C@@H]12 | -14.3 |
| COc1ccc(OC)c(C(O)CNC(=O)CN)c1 (stereo not shown) | -18.5 |
| CNC(=C[N+](=O)[O-])NCCSCc1csc(CN(C)C)n1 | -3.9 |
| Cc1cccc(Nc2ccncc2S(=O)(=O)NC(=O)NC(C)C)c1 | -17.1 |

Other studies, line by line
| SMILES | target or system | test | system | conditions | quantity | result |
| --- | --- | --- | --- | --- | --- | --- |
| N#Cc1cnc2cnc(NCc3cccnc3)cc2c1Nc1ccc(F)c(Cl)c1 | MAP3K8 (Homo sapiens, UniProt P41279) | cell-free assay | – | 0.5 µM | remaining signal | 79.1% |
| CN1CCN(CC/C=C2/c3ccccc3Sc3ccc(S(=O)(=O)N(C)C)cc32)CC1 | SLC18A2 (Homo sapiens, UniProt Q05940) | monoamine uptake, inhibitor | – | – | IC50 | 6.4 µM |
| O=C(O)c1cc(-c2ccc(C3CCNCC3)cc2)c2ccc(-c3ccc(C(F)(F)F)cc3)cc2c1 | CHRM1 (Homo sapiens, UniProt P11229) | binding, radioligand binding | – | 10 µM | inhibition | 4.16% |
| COc1ccc(-c2c(Nc3ccccn3)[nH]c3c(C4=CCCCC4)c(-c4ccccc4)nn3c2=O)cc1 | – | – | human, plasma | oral, 200 mg twice daily | dose-normalised AUC(0-tau) | 665 ng·h/mL/mg and 618 ng·h/mL/mg and 620 ng·h/mL/mg |

Some of these lines once more (sample 2):
| Structure (SMILES) | inhibition [%] |
| --- | --- |
| COC(=O)CCc1ccc(OCC(O)CNC(C)C)cc1 (stereo not shown) | 4.2 |
| Cc1cccc(Nc2ccncc2S(=O)(=O)NC(=O)NC(C)C)c1 | -17.1 |
